Published values pooled from the literature.
FURIN: Furin (FURIN, Homo sapiens, UniProt P09958)
CASP3: Caspase-3 (CASP3, Homo sapiens, UniProt P42574)

Protein sequences, listed by entry. Tags and fused reporters are not part of them. Residues count along the entry.
UniProt P09958, whole entry, looked up: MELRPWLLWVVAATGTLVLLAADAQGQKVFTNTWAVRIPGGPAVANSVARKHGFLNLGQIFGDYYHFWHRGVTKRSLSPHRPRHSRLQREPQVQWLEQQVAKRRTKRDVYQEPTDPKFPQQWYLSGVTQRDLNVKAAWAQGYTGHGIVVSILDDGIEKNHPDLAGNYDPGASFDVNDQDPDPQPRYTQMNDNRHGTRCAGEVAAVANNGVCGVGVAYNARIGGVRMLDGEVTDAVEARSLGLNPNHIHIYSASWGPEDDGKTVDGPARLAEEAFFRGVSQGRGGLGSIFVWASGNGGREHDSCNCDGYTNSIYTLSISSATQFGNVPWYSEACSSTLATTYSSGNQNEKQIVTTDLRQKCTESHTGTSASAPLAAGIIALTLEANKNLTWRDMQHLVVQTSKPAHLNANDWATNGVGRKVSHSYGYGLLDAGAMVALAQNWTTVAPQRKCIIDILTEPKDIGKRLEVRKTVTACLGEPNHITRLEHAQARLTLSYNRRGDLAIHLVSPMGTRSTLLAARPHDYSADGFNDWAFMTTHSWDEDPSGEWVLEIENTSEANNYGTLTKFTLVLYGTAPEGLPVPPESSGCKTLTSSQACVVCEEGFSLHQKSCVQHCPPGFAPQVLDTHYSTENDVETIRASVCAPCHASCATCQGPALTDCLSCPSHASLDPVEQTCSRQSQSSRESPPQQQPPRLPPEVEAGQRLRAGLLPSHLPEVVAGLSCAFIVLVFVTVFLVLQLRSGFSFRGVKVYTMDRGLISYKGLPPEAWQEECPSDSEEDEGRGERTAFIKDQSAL
UniProt P42574, whole entry, looked up: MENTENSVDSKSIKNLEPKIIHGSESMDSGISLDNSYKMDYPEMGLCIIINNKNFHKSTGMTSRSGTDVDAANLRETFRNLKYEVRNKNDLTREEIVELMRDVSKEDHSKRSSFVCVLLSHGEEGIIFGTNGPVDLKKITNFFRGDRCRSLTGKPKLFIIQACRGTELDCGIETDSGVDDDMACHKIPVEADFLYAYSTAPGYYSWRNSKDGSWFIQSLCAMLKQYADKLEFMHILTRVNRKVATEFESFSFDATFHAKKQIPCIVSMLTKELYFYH
UniProt P09211, whole entry: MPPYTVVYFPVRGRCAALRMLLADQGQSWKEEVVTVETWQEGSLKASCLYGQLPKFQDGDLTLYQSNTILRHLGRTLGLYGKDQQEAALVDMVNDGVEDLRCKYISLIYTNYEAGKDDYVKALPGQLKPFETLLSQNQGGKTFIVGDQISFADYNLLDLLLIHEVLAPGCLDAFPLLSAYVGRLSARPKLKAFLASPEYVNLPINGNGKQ
UniProt P55210, whole entry, looked up: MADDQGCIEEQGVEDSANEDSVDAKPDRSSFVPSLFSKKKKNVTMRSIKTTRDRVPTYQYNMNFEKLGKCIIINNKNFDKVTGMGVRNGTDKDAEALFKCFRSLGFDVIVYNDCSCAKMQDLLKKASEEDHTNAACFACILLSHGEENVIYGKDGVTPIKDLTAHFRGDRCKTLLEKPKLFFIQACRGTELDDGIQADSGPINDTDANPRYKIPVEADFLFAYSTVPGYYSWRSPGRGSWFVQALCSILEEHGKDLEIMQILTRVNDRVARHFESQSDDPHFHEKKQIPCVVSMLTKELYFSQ
UniProt F1M9V7, 1-920: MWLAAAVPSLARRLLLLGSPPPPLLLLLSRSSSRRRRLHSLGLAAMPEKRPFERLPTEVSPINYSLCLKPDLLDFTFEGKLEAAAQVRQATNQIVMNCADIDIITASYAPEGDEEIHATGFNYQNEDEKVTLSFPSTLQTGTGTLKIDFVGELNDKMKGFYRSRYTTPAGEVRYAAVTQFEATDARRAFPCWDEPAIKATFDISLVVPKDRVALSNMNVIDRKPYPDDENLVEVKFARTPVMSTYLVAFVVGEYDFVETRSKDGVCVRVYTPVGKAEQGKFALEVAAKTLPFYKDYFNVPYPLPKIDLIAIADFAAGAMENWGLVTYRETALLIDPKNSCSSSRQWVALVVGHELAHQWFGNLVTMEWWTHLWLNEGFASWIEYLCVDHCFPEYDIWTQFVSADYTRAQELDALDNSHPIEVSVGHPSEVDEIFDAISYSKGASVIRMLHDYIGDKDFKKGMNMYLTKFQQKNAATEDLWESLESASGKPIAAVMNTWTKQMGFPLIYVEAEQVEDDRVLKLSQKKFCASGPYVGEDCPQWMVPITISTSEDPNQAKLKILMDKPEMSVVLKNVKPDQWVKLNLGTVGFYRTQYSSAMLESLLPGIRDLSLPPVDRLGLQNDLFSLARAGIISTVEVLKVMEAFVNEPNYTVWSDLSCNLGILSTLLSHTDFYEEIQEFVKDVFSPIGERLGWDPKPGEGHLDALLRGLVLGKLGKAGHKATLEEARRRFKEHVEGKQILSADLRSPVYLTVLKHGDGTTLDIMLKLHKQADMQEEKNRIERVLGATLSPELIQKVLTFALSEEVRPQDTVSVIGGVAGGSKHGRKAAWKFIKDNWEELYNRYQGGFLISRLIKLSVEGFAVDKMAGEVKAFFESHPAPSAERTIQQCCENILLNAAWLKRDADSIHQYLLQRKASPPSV
UniProt Q03530, whole entry: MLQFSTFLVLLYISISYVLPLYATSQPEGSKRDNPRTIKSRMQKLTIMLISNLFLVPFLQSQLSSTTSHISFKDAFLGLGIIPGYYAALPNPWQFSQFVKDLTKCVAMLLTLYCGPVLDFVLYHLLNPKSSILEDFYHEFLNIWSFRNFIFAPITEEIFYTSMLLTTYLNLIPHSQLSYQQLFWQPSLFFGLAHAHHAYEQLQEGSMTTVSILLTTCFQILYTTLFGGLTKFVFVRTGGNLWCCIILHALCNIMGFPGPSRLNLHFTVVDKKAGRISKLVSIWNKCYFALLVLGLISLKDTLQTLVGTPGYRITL
UniProt Q05941, 23-502 limits assumed: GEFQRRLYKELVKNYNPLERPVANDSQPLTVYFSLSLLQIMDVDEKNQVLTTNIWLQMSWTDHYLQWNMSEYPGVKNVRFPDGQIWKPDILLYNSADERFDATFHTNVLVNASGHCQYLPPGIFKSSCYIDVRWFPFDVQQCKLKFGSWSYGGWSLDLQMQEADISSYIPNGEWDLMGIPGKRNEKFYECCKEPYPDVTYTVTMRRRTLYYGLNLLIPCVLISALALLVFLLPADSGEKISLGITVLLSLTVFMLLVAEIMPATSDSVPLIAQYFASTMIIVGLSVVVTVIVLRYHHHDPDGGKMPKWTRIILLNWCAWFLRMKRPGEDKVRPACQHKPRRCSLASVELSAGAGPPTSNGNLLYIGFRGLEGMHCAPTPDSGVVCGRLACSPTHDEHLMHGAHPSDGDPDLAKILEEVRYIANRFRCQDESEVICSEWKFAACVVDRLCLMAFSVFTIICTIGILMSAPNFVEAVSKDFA

| SMILES | tested on | test | test system | conditions | how to read | endpoint | value |
| --- | --- | --- | --- | --- | --- | --- | --- |
| CC(C)C[C@H](NC(=O)CNC(=O)[C@H](CCCNC(=N)N)NC(=O)[C@H](CCCCN)NC(=O)[C@H](CCCCN)NC(=O)[C@H](CCCNC(=N)N)NC(=O)[C@H](CCCNC(=N)N)NC(=O)[C@H](CCCNC(=N)N)NC(=O)c1ccccc1N)C(=O)N[C@@H](CO)C(=O)NCC(=O)N[C@@H](CCC(N)=O)C(=O)NCCNc1ccc([N+](=O)[O-])cc1[N+](=O)[O-] | FURIN | substrate | – | pH 7.0, 37 °C, no KCl | – | Km | 3.01 µM |
| N#Cc1c(-c2ccc(Cl)cc2Cl)n(-c2nc(-c3ccc(Cl)cc3)c3c(NC(=O)c4ccccc4)nnc-3[nH]2)[nH]c1=O | UACC-62 | SRB | – | – | – | CC50 | > 100 µM |
| CC(C)[C@H](NC(=O)[C@H](CO)NC(=O)[C@H](CC(=O)O)NC(=O)[C@H](CCC(N)=O)NC(=O)CCNC(=O)Cc1cc(=O)oc2cc(N)ccc12)C(=O)N[C@@H](CC(=O)O)C(=O)N[C@@H](Cc1ccccc1)C(=O)N[C@@H](COP(=O)(O)O)C(=O)N[C@@H](CC(N)=O)C(=O)N[C@@H](Cc1c[nH]cn1)C(=O)N[C@@H](CC(=O)O)C(=O)N[C@@H](CCCCNc1ccc([N+](=O)[O-])cc1[N+](=O)[O-])C(N)=O | CASP3 | substrate | – | – | baseline: unphosphorylated substrate over phosphorylated | kcat/Km decrease | 58 fold |
| CCOC(=O)c1c(-c2ccc(Cl)cc2Cl)n(-c2nc(-c3ccc(Cl)cc3)c3c(NC(=O)c4ccccc4)nnc-3[nH]2)[nH]c1=O | PC-3 | SRB | – | – | – | CC50 | > 100 µM |
| CC(C)C[C@H](NC(=O)[C@H](CS)NC(=O)[C@H](Cc1ccc(O)cc1)NC(=O)[C@H](Cc1ccccc1)NC(=O)[C@@H](NC(=O)[C@@H]1CCCN1C(=O)[C@H](Cc1ccc(O)cc1)NC(=O)[C@@H](N)CC(C)C)[C@@H](C)O)C(=O)N[C@@H](Cc1ccccc1)C(=O)O | HLA class I histocompatibility antigen, C alpha chain, allele C*04:01 (Homo sapiens, UniProt P10321) | – | – | – | direction not given | z-score | -0.525 |
| C=C(CC)C(=O)c1ccc(OCC(=O)NCCOCCOCCOCCC(=O)NCCN(CCNC(=O)CCOCCOCCOCCNC(=O)COc2ccc(C(=O)C(=C)CC)c(Cl)c2Cl)CCNC(=O)[C@H](CNC(=O)CCN2C(=O)CC(SC[C@H](NC(=O)CNC(=O)[C@H](CC(C)C)NC(=O)[C@@H](NC(=O)[C@H](CCCCN)NC(=O)[C@H](CCCCN)NC(=O)[C@H](C)NC(=O)[C@H](CC(C)C)NC(=O)[C@H](C)NC(=O)[C@H](C)NC(=O)[C@H](CC(C)C)NC(=O)[C@H](C)NC(=O)[C@H](CCCCN)NC(=O)[C@H](CC(C)C)NC(=O)[C@H](CC(N)=O)NC(=O)[C@@H](N)[C@@H](C)CC)[C@@H](C)CC)C(=O)O)C2=O)NC(=O)CCCCCN2C(=CC=CC=CC3=[N+](C)c4ccc(S(=O)(=O)O)cc4C3(C)C)C(C)(C)c3cc(S(=O)(=O)[O-])ccc32)c(Cl)c1Cl (stereo partly shown) | GSTP1 (Homo sapiens, UniProt P09211) | covalent adduct, LC-MS | – | 2.5 µM, 10 min | – | mass increase | 3620 Da |
| CC(C)[C@H](NC(=O)CNC(=O)[C@H](CC(=O)O)NC(=O)[C@@H](NC(=O)[C@H](CCC(=O)O)NC(=O)[C@H](CC(=O)O)NC(=O)CCNC(=O)Cc1cc(=O)oc2cc(N)ccc12)C(C)C)C(=O)N[C@@H](CCCCNc1ccc([N+](=O)[O-])cc1[N+](=O)[O-])C(=O)N[C@@H](CC(=O)O)C(N)=O | Caspase-7 (CASP7, Homo sapiens, UniProt P55210) | substrate | – | pH 7.2 | – | Km | 6.05 µM |
| CC(C)C[C@H](NC(=O)[C@H](Cc1ccccc1)NC(=O)CNC(=O)CNC(=O)[C@@H](N)Cc1ccc(O)cc1)C(=O)O | Puromycin-sensitive aminopeptidase (Rattus norvegicus, UniProt F1M9V7) | substrate | – | rat enzyme, MW 100 kDa | – | kcat | 12.9 s⁻¹ |
| COP(=O)(OC)Oc1ccc([N+](=O)[O-])cc1Cl | carboxylesterase (rat) | enzyme activity, inhibitor | rat, postnatal day 1, rat liver homogenate | added: p-nitrophenyl valerate | – | IC50 | 0.055 µM |
| CC[C@H](C)[C@H](NC(=O)[C@H](CCCCNc1ccc([N+](=O)[O-])cc1[N+](=O)[O-])NC(=O)[C@H](CSC/C=C(\C)COCc1cccc(C(=O)c2ccccc2)c1)NC(=O)[C@H](CCCCN)NC(=O)[C@@H](NC(=O)[C@H](CCCCN)NC(=O)[C@H](CO)NC(=O)[C@H](CCCCN)NC(=O)c1ccccc1N)[C@@H](C)O)C(=O)N[C@@H](CCSC)C(=O)O | CAAX prenyl protease 2 (Saccharomyces cerevisiae S288c, UniProt Q03530) | CAAX proteolysis, substrate, fluorescence | yeast membranes | range over 0 to 45 µM, 1 h, pH 7.5, 30 °C, membranes 0.25 mg/mL protein | – | Vmax | 0.093 nmol/min/mg protein |
| CC(C)[C@H](NC(=O)CNC(=O)[C@H](COP(=O)(O)O)NC(=O)[C@@H](NC(=O)[C@H](CCC(=O)O)NC(=O)[C@H](CC(=O)O)NC(=O)CCNC(=O)Cc1cc(=O)oc2cc(N)ccc12)C(C)C)C(=O)N[C@@H](CCCCNc1ccc([N+](=O)[O-])cc1[N+](=O)[O-])C(=O)N[C@@H](CC(=O)O)C(N)=O | CASP3 | substrate | – | – | baseline: caspase-3 kcat over caspase-7 kcat | kcat ratio | 2 fold |
| CC(C)C[C@H](NC(=O)c1ccccc1N)C(=O)N[C@@H](CCCCN)C(=O)N[C@@H](CCCNC(=N)N)C(=O)N[C@@H](CCCNC(=N)N)C(=O)N[C@@H](CCCCN)C(=O)N[C@@H](CCCNC(=N)N)C(=O)N[C@@H](C)C(=O)N[C@H](C(=O)N[C@@H](CC(N)=O)C(=O)N1CCC[C@H]1C(=O)N[C@@H](CCC(N)=O)C(=O)NCCNc1ccc([N+](=O)[O-])cc1[N+](=O)[O-])C(C)C | FURIN | substrate | – | pH 7 | – | kcat | 1 s⁻¹ |
| CC[C@H](C)[C@@H]1NC(=O)[C@H](CCC(=O)O)NC(=O)[C@@H]2CCCN2C(=O)[C@H](Cc2c[nH]cn2)NC(=O)[C@H](CCCNC(=N)N)NC(=O)[C@H](C(C)C)NC(=O)[C@H](CC(N)=O)NC(=O)[C@@H]2CSSC[C@H](NC(=O)CN)C(=O)N[C@@H](CSSC[C@@H](C(N)=O)NC1=O)C(=O)N[C@@H](CO)C(=O)N[C@@H](Cc1c[nH]cn1)C(=O)N1CCC[C@H]1C(=O)N[C@@H](C(C)C)C(=O)N2 | Chrna7 (Rattus norvegicus, UniProt Q05941) | ion current, antagonist, two-electrode voltage clamp | Xenopus oocytes | rat, added: ACh 300 µM | – | IC50 | > 10 µM |

Excerpt of the above:
| SMILES | tested on | test | test system | conditions | how to read | endpoint | value |
| --- | --- | --- | --- | --- | --- | --- | --- |
| CC(C)[C@H](NC(=O)CNC(=O)[C@H](COP(=O)(O)O)NC(=O)[C@@H](NC(=O)[C@H](CCC(=O)O)NC(=O)[C@H](CC(=O)O)NC(=O)CCNC(=O)Cc1cc(=O)oc2cc(N)ccc12)C(C)C)C(=O)N[C@@H](CCCCNc1ccc([N+](=O)[O-])cc1[N+](=O)[O-])C(=O)N[C@@H](CC(=O)O)C(N)=O | CASP3 | substrate | – | – | baseline: caspase-3 kcat over caspase-7 kcat | kcat ratio | 2 fold |
| CC(C)C[C@H](NC(=O)c1ccccc1N)C(=O)N[C@@H](CCCCN)C(=O)N[C@@H](CCCNC(=N)N)C(=O)N[C@@H](CCCNC(=N)N)C(=O)N[C@@H](CCCCN)C(=O)N[C@@H](CCCNC(=N)N)C(=O)N[C@@H](C)C(=O)N[C@H](C(=O)N[C@@H](CC(N)=O)C(=O)N1CCC[C@H]1C(=O)N[C@@H](CCC(N)=O)C(=O)NCCNc1ccc([N+](=O)[O-])cc1[N+](=O)[O-])C(C)C | FURIN | substrate | – | pH 7 | – | kcat | 1 s⁻¹ |
